Measurements pooled from the literature.
Parts stem from different laboratories: compare values within a part only.
UniProt P10721, sequence (whole entry, unmodified, looked up): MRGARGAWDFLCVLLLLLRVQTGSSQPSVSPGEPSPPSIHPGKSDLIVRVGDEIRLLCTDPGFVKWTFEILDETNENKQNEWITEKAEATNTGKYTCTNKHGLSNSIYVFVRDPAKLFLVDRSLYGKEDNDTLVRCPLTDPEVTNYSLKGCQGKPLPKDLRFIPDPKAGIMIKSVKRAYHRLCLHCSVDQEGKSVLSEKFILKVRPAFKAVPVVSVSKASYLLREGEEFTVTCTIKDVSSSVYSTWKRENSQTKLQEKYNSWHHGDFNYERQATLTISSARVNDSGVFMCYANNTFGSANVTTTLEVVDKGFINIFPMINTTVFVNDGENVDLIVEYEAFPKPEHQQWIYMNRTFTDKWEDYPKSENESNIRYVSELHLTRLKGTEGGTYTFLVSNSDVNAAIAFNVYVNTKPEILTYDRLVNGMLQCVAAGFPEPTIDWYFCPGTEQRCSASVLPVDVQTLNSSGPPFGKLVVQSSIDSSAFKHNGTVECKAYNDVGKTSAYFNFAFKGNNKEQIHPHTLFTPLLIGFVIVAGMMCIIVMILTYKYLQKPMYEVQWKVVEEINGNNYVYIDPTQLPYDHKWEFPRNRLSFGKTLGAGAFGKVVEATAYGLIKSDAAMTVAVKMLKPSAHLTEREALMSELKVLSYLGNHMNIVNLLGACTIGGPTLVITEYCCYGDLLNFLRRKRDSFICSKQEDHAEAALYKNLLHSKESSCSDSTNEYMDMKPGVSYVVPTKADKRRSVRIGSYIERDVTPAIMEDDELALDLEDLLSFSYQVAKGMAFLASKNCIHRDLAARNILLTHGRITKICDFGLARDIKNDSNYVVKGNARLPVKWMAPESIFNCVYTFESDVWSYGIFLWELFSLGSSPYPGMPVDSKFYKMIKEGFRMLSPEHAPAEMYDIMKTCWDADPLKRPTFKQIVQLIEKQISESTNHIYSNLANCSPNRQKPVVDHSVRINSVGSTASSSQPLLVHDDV
UniProt Q13237, sequence (whole entry, looked up): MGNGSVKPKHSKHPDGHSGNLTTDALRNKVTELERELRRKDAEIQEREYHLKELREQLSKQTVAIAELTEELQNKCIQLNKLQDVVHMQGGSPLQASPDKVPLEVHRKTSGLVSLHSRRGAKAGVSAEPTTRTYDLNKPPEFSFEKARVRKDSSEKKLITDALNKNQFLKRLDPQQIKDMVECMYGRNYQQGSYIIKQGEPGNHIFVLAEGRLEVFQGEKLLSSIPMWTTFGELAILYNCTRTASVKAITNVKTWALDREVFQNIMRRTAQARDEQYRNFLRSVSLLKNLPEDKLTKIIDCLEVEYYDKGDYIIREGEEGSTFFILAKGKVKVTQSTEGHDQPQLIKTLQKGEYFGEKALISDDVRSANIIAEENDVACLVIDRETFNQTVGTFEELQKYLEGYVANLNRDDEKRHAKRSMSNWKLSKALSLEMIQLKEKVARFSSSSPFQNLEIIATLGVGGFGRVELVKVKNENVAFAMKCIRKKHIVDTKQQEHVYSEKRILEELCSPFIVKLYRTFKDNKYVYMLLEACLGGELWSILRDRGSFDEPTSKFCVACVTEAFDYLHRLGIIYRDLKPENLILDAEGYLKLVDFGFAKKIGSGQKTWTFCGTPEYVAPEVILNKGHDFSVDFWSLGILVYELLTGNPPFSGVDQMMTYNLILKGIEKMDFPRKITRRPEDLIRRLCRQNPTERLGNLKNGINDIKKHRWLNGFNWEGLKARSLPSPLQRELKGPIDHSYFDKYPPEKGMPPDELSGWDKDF
UniProt P28482, sequence (whole entry, looked up): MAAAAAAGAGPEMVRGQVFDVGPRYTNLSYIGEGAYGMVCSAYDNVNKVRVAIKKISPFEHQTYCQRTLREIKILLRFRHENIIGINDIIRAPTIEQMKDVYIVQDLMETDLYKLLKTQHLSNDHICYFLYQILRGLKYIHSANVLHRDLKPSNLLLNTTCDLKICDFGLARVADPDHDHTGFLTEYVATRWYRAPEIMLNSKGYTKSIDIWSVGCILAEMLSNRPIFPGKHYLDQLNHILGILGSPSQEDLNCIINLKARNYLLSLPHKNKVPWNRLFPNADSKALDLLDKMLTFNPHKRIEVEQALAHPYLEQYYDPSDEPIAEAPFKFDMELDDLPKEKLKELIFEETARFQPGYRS
UniProt Q8N4C8, sequence (whole entry, looked up): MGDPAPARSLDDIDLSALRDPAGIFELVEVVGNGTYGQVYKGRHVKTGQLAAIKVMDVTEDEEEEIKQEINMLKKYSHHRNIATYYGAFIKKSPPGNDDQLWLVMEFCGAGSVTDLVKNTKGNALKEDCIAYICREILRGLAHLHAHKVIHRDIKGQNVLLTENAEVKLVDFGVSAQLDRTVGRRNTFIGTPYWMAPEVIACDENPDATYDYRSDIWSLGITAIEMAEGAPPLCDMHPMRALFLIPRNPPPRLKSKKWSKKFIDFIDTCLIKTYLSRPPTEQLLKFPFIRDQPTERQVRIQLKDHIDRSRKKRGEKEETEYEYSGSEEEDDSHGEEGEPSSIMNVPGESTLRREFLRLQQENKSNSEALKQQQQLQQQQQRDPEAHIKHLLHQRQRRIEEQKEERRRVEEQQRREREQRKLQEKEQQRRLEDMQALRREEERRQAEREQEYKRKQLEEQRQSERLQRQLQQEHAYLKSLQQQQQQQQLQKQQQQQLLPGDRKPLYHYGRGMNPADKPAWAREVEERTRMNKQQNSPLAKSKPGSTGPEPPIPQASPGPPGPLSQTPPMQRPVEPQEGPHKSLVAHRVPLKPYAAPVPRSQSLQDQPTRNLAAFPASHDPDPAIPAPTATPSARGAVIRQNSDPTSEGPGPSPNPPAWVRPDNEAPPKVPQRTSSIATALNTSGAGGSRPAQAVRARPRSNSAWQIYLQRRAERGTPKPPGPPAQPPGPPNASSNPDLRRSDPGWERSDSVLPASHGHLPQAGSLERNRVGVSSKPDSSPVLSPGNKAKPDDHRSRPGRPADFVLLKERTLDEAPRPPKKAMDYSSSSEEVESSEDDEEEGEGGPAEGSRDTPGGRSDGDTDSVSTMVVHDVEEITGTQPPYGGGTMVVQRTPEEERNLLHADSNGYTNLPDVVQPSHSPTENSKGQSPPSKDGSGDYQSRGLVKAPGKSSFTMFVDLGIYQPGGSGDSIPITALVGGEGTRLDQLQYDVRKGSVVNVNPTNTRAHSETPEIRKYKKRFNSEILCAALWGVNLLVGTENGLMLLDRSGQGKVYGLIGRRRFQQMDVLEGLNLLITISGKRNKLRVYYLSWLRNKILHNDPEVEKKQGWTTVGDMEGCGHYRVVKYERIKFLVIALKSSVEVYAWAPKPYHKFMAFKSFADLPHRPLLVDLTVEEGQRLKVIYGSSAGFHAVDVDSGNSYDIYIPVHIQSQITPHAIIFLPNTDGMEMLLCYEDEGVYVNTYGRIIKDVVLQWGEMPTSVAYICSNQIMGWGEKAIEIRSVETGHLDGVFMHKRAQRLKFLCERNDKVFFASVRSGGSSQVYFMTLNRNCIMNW
UniProt Q99558, sequence (whole entry, looked up): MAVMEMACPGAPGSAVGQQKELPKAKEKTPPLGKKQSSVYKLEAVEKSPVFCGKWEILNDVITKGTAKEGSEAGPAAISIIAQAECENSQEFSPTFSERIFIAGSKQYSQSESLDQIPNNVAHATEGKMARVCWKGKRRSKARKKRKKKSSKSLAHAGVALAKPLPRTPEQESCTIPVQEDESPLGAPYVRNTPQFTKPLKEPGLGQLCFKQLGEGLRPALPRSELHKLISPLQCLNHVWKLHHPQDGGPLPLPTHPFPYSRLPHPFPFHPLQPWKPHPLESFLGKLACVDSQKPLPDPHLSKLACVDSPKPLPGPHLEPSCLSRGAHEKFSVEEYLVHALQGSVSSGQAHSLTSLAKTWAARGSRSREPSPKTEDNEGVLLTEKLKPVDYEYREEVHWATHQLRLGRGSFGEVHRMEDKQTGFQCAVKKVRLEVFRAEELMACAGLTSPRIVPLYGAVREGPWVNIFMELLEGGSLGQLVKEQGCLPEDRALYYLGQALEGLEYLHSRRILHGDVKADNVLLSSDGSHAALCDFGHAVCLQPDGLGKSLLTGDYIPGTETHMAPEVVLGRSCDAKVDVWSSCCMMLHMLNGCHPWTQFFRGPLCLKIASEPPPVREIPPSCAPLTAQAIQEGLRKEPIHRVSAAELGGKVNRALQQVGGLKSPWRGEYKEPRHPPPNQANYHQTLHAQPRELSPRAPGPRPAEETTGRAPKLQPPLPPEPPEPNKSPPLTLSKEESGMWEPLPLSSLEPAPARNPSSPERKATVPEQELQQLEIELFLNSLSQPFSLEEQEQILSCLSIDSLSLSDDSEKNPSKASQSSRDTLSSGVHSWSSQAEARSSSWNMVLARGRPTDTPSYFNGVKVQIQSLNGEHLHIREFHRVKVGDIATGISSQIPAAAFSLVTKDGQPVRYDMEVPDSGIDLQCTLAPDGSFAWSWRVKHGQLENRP

Block 1 — effect on: transporter uptake; mode: inhibitor; method: radiometric; notes: cell membranes
Target: Synaptic vesicular amine transporter (SLC18A2, Homo sapiens, UniProt Q05940)
UniProt Q05940, sequence (whole entry, looked up): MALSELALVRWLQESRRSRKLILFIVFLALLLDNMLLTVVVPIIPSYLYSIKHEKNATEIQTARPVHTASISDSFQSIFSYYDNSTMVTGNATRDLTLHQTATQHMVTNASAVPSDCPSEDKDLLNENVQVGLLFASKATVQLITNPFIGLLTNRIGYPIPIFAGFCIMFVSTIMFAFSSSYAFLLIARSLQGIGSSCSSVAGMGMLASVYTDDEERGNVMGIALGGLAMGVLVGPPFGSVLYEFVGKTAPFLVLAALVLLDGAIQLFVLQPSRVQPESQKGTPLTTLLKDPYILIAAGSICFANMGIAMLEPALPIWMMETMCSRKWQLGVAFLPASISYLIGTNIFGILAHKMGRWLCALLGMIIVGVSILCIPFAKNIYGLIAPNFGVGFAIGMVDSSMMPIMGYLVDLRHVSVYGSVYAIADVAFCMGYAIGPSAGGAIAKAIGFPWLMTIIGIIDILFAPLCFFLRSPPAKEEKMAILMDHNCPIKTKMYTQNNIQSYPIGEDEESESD
| Compound | IC50 [µM] |
| --- | --- |
| COc1ccc(C[C@@H](C)NC[C@H](O)c2ccc(O)c(NC=O)c2)cc1 (racemic) | 0.244 |
| O=C(CCCN1CCC(O)(c2ccc(Cl)cc2)CC1)c1ccc(F)cc1 | 0.186 |
| COc1cc2nc(N3CCN(C(=O)C4CCCO4)CC3)nc(N)c2cc1OC (stereo not drawn) | 0.313 |
| CN(C)C/C=C/C(=O)Nc1cc2c(Nc3ccc(F)c(Cl)c3)ncnc2cc1O[C@H]1CCOC1 | 0.54 |
| CC(C(O)c1ccc(O)cc1)N1CCC(Cc2ccccc2)CC1 (stereo not drawn) | 0.312 |
| COc1ccccc1OCCNCC(O)COc1cccc2[nH]c3ccccc3c12 (stereo not drawn) | 0.053 |
| O=c1ccc2ccc(OCCCCN3CCN(c4cccc5sccc45)CC3)cc2[nH]1 | 0.022 |
| Cc1cc(Nc2ncc(Cl)c(Nc3ccccc3S(=O)(=O)C(C)C)n2)c(OC(C)C)cc1C1CCNCC1 | 1 |

Block 2 — effect on: enzyme activity; mode: inhibitor; concentration: 0.5 µM; reference: control
SMILES: CCCNC(=O)Nc1ccc(Oc2ncnc3cc(OC)c(OC)cc23)cc1Cl
| target | remaining activity |
| --- | --- |
| Serine/threonine-protein kinase PAK 3 (PAK3, Homo sapiens, UniProt O75914) | 94.7% |
| Dual specificity protein kinase CLK4 (CLK4, Homo sapiens, UniProt Q9HAZ1) | 94.2% |
| cGMP-dependent protein kinase 2 (PRKG2, Homo sapiens, UniProt Q13237) | 97% |
| Myosin-IIIb (MYO3B, Homo sapiens, UniProt Q8WXR4) | 76.2% |
| G protein-coupled receptor kinase 4 (GRK4, Homo sapiens, UniProt P32298) | 94.4% |
| Mitogen-activated protein kinase 11 (MAPK11, Homo sapiens, UniProt Q15759) | 88.5% |
| Calcium/calmodulin-dependent protein kinase type 1B (PNCK, Homo sapiens, UniProt Q6P2M8) | 95.4% |
| Misshapen-like kinase 1 (MINK1, Homo sapiens, UniProt Q8N4C8) | 90.1% |
| Discoidin domain-containing receptor 2 (DDR2, Homo sapiens, UniProt Q16832) | 67.6% |
| Hepatocyte growth factor receptor (MET, Homo sapiens, UniProt P08581) | 73.6% |
| Cyclin-dependent kinase 1, with cyclin A (CDK1, Homo sapiens, UniProt P06493) | 97.7% |
| Cyclin-dependent kinase 9, with cyclin K (CDK9, Homo sapiens, UniProt P50750) | 103% |
| MAP/microtubule affinity-regulating kinase 4 (MARK4, Homo sapiens, UniProt Q96L34) | 110% |
| Mitogen-activated protein kinase 1 (MAPK1, Homo sapiens, UniProt P28482) | 101% |
| Dual specificity protein kinase CLK3 (CLK3, Homo sapiens, UniProt P49761) | 98.8% |

Block 3 — effect on: acetyl-histone H4 peptide binding; method: AlphaScreen displacement; concentration: 50 µM
Target: Bromodomain-containing protein 4, BD1 (BRD4, Homo sapiens, UniProt O60885)
| SMILES | inhibition |
| --- | --- |
| Nc1nc(Nc2ccccc2)sc1C(=O)c1ccc(F)cc1 | 56% |
| CCCCc1c(-c2ccc(O)cc2)[nH]c2nccnc12 | 3.9% |
| O=S(=O)(O)c1cccc(NN=Nc2ccc(Br)cc2)c1 | 20.8% |
| Cc1ccc([N+](=O)[O-])cc1S(=O)(=O)N(C)N=Cc1cnc2ccc(Br)cn12 | 55.7% |
| CCOC(=O)CNC(=O)CSc1ccc2nnc(-c3ccc(Cl)cc3)n2n1 | 7.65% |
| CCOC(=O)C1=C(CSc2ccccc2C(=O)O)NC(=O)NC1 | 10.1% |

Block 4 — effect on: cell-free assay; method: competition with immobilised ligand; concentration: 1 µM
SMILES: Cn1nc(C(F)(F)F)cc1-c1cnc(N2CCc3cc(S(=O)(=O)Nc4c(F)cc(Cl)cc4F)cc(N4CCCC4=O)c32)nc1
| target | remaining binding [%] |
| --- | --- |
| Phosphatidylinositol 4,5-bisphosphate 3-kinase catalytic subunit alpha isoform (PIK3CA, Homo sapiens, UniProt P42336, H1047Y) | 76 |
| Mast/stem cell growth factor receptor Kit (KIT, Homo sapiens, UniProt P10721, A829P) | 80 |
| Serine/threonine-protein kinase PLK2 (PLK2, Homo sapiens, UniProt Q9NYY3) | 91 |
| RAF proto-oncogene serine/threonine-protein kinase (RAF1, Homo sapiens, UniProt P04049) | 100 |
| Epidermal growth factor receptor (EGFR, Homo sapiens, UniProt P00533, G719S) | 100 |
| Rho-associated protein kinase 1 (ROCK1, Homo sapiens, UniProt Q13464) | 89 |
| Protein kinase C delta type (PRKCD, Homo sapiens, UniProt Q05655) | 95 |
| Mast/stem cell growth factor receptor Kit (KIT, Homo sapiens, UniProt P10721, T670I/V559D) | 88 |
| Ribosomal protein S6 kinase alpha-3, N-terminal kinase domain (RPS6KA3, Homo sapiens, UniProt P51812) | 99 |
| Mitogen-activated protein kinase kinase kinase 14 (MAP3K14, Homo sapiens, UniProt Q99558) | 79 |

Excerpt of the above (block 4):
| target | remaining binding [%] |
| --- | --- |
| Protein kinase C delta type (PRKCD, Homo sapiens, UniProt Q05655) | 95 |
| Mast/stem cell growth factor receptor Kit (KIT, Homo sapiens, UniProt P10721, T670I/V559D) | 88 |
| Ribosomal protein S6 kinase alpha-3, N-terminal kinase domain (RPS6KA3, Homo sapiens, UniProt P51812) | 99 |
